Experimental data from different studies.
Each numbered part is a random draw from the data of one study; scales do not carry over between parts. Substitutions count along the parent as printed.

Series 1
Target: RING finger protein unkempt homolog, zinc fingers 1-6, SBP tag (UNK, Homo sapiens, UniProt Q9C0B0, residues 30-357)
Sequence of UniProt Q9C0B0 (30-357, looked up): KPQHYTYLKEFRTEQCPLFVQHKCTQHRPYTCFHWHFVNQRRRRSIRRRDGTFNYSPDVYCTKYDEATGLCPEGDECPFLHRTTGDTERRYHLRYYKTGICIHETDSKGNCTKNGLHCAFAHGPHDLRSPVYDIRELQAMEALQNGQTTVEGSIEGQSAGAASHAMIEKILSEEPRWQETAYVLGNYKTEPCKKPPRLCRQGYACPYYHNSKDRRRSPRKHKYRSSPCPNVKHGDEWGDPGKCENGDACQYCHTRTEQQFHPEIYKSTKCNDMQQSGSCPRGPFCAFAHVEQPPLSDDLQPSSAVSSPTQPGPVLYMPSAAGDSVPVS
Method: RNA Bind-n-Seq
Molecule type: RNA
Sample: in vitro
Concentration: 100 nM
Notes: RNA with constant flanks, vertebrate orthologous sites, ends assumed
Relative to: input RNA pool
Direction: higher = stronger binding
Shared flanks, not repeated: GGGAGUUCUACAGUCCGACGAUC … CAACAGAGGAUUGAGCAUCA
| Oligonucleotide | bound/input enrichment |
| --- | --- |
| UUCACCACUCCUGGGUGCGUGAUUGAGGGUGAAGCAUCCACCAGCACUGCAAGGGGUCCAUAGUAUUUUUUUUUUUUUUUUUUUUUACACUGUCAGAAUUUCUUUCUUAGAUUUAAUUGA | 9.82 ratio |
| CUCCCUACUCCUGGGUGUGUGACUGAGGGGGAAGCAUCCACCAGCGCUGCAAGGGGUCCCUAGUAUUUUUUGCUGCCUCGGAGUCCCAGAAGCCUUCAAGCAGAAGUGGCAGUAGUUGGU | 1.2 ratio |
| AGCUUCCGGCGACAUUUGGCCUGGCCUUUCAGCGUAUGAUAACAGUCCGAGGUCACCCCACAGUCCUUCUAUUGCCACCCCGCCUAGUCAGAGUUCAUCUUGCUCUGAUGCCCCUUUGCU | 0.583 ratio |
| GCCUCCAGCAGGCAAAUUCAGGGGGAGAGAGGCUUCAGGGAGUAUAAAUUUAUUUAAUAGUAGUGAUCAUGAAGUAUAAACUUGAUAUAAUUGAAUGAUUUGGGGGAGUGAUGACAAACU | 1.67 ratio |
| CUCUAUGGGCCUCGCAGAGUUGAAAUAAUGGAAGAGGAAAGUGAACAGUAACCUUCAUUUUAGUAUUUAUGCUUAGGUGUGAAAUAAAUGUUAUUUGUUGAUCAUUUCUAUAAUCCAGAG | 0.435 ratio |
| CUGAAGCUUUGUGUUUGGCUGCACCUGCAUAAGCUGCUACAAAUAGAAUAAAGAAUUUCAUAGCCUGUAUCUAUCAUUUAGAUGCAUGGGAAUGGGCUUUGCACAUAGUAGGUUUGGAGC | 1.75 ratio |
| GGUCAUUUAUAGCAAUUAGAGUGGGUUGCCCCUCUACUUCUCCCAAGAAGAAAUCCCAAAUAGAUUCCUUUCAUGUCAGAUUAUACUGUUCUGAUUUUAUUUUCUAUUAUUUUUACAUAU | 0.675 ratio |
| AUUUAGAAUAUUCAUGAAUGGCUCCAAGAUGUGUGAAGUCCGUUCUGUAGGAUGAGACCACAGCAUGGUGACUGUGUGUGUGUGUGUGUGUGUGUGUGUGUGUGUGUAUCGCUGCCAAAG | 1.41 ratio |

Series 2
Target: Interferon regulatory factor 5, full length, phosphomimetic (IRF5, Homo sapiens, UniProt Q13568-2, residues 1-514, K96S/S451D/S453D/S456D/S462D)
Method: protein-binding microarray
Molecule type: double-stranded DNA, one strand shown
Sample: in vitro
Concentration: 250 nM
Notes: 60-bp whole probe
Together with: salmon DNA 0.4 mg/ml
Relative to: random background probes
Direction: higher = stronger binding
Shared flanks, not repeated: GCCTAGCAC … GTCTTGATTCGCTTGACGCTGCTG
| Oligonucleotide | log fluorescence [z-score] |
| --- | --- |
| GACGGTTTCGGGTATCGGGACGTGCTA | 7.66 |
| TTAGGTATCCTACTGCTTTTGTGCTAG | 0.105 |
| CTTAGTTTGTATATATTTTAGTGCTAG | 0.784 |
| TTAGAACTGGGGACTGCATTAGTGCTA | -0.251 |
| GACGGTATCGACACTGGGGTCGTGCTA | 1.95 |
| TTAGACATCAGTATCGATTAGTGCTAG | 7.08 |
| GACGATTTCGGGTTTTGAGACGTGCTA | 3.17 |
| TTGGATATCAGTCTCGATTAGTGCTAG | 1.6 |
| TTAGGTATCGGGTTTCGGTCAGTGCTA | 8.46 |
| TTAGAACTTGGGACTGGATTAGTGCTA | -0.114 |
| GTCGGTCTCGGTCTCGGGACGTGCTAG | 0.739 |
| GAAGGTATCGGGTTTCGGGACGTGCTA | 4.66 |
| TATCCTATCAGTTTAATATCGTGCTAG | 2.72 |
| GACGATCTCGGACTGGAGACGTGCTAG | -0.131 |
| TTAAGTCTCGGTTTCGGTTAGTGCTAG | 9.4 |
| GACGGTATGCTACTGCTGACGTGCTAG | -0.567 |
| TTAGGTCTCCTTCTCGTTTAGTGCTAG | 0.119 |
| TCAAATTTTTGCATCGTACTGTGCTAG | 0.666 |
| TTAGGACTGCTTACCCTTTAGTGCTAG | -0.153 |

Series 3
Target: Sal-like protein 4, full length isoform B (SALL4, Homo sapiens, UniProt Q9UJQ4-2, residues 1-616)
Method: universal PBM
Molecule type: double-stranded DNA, one strand shown
Sample: in vitro
Concentration: not given
Notes: 8-mer, flanks averaged, mean of replicates
Direction: higher = stronger binding
| Oligonucleotide | E-score |
| --- | --- |
| AAGGGCTA | -0.0581 |
| AATTGGTA | 0.193 |
| CACGACTC | -0.102 |
| GCGGTCCA | -0.245 |
| CCGTTGCG | -0.217 |
| AAAAAAAC | 0.253 |
| GTAAAAAC | 0.25 |
| TAGCACTA | 0.0859 |
| ACGGCAGC | -0.214 |
| TCATGTCA | 0.126 |
| TTAATAAA | 0.445 |
| ACCGCTGC | -0.416 |
| CGAAATAG | 0.0348 |
| TATCACAA | 0.227 |
| CATTCGGG | -0.224 |
| AGAATTAT | 0.377 |
| TCTTCGAA | 0.00307 |
| CCCCTTGC | -0.276 |
| TACCTAGA | 0.152 |
| AGTAAGGG | -0.0689 |
| ATCGACTA | 0.0417 |
| TAACAAAA | 0.35 |
| AACGTCCG | -0.251 |
| AAGTCCCA | -0.0695 |

Series 4
Organism: Saccharomyces cerevisiae
Observed: binding
Method: yeast competitive growth sequencing
Molecule type: peptide
Strain: cyclin D1-Cln2 strain
Sample: peptide tiling library
Notes: pooled screen
Direction: direction not given
| Sequence | enrichment score |
| --- | --- |
| PLRKAKRARLCSSSSS | 1.11 |
| TSSAQRRLEIPSGGAD | -0.45 |
| RVSGLLSWTLSRVLWL | -1.71 |
| PFSENVSAVQKLDFSD | 2.18 |
| TRRRLFVENDSP | -0.784 |
| LKGRRLVFDN | -0.284 |
| RSLKLDGLLEEN | -0.478 |
| KRRLDLETDHQY | -0.263 |
| CFRCLLFSFSGRSGVE | -2.22 |
| LAKRALKYTD | -1.32 |
| IQKKLRFEDTLEFVGF | -1.04 |
| MNQELLSVGSKRRRTG | 1.53 |
| AGSAKRRLFGEDPPKE | 0.489 |
| ISRLFPPRTPGWHQLQ | -4.15 |

Series 5
Target: ATF3, bZIP domain (human)
Method: DHFR protein complementation
Sample: yeast
Notes: single substitutions, most at no-binding floor
Relative to: wild-type JUN-FOS pair
Direction: higher = stronger binding
Parent: JUN, bZIP domain (human); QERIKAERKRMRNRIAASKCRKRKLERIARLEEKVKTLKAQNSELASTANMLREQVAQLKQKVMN; partner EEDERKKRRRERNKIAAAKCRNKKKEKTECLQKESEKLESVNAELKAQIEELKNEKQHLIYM
| Substitution | binding fitness |
| --- | --- |
| L59G | -1.37 natural log |
| M51G | -0.216 natural log |
| T37R | -0.0322 natural log |
| V35F | -0.528 natural log |
| A46I | -0.061 natural log |
| A29F | -0.235 natural log |
| I28L | -0.114 natural log |
| I28Y | -0.15 natural log |
| K34R | 0.00687 natural log |
| S43K | 0.0519 natural log |
| R53V | -0.362 natural log |
| A57S | -0.261 natural log |
| S43Q | -0.0132 natural log |
| V35S | -0.954 natural log |
| A29W | -0.278 natural log |
| A29C | -0.264 natural log |
| K34S | -0.324 natural log |
| V56M | -0.929 natural log |
| T48R | -0.117 natural log |
| K39S | -0.289 natural log |
| E33W | -0.309 natural log |
| S47A | 0.000476 natural log |
| Q55R | -0.609 natural log |
| K36L | -0.155 natural log |
| L38D | -1.04 natural log |

A few entries again (series 5):
| Substitution | binding fitness |
| --- | --- |
| E33W | -0.309 natural log |
| A29W | -0.278 natural log |
| Q55R | -0.609 natural log |
| K34R | 0.00687 natural log |
| A57S | -0.261 natural log |
